Results of several laboratories.
Each line is one published result; not all experiments were run side by side. “And” joins repeats or separate records; there may be more than shown. ± gives the spread as reported.

SMILES	test	test system	setting	how to read	quantity	value
C[C@@H](NC(=O)N1C(=O)[C@H](Cc2ccnc(N)c2)[C@H]1C(=O)O)C1CCCCC1		human, plasma	continuous intravenous infusion, 1.0 mg/kg/h, days 1 to 6 of 5-day infusion, median		time to maximum prothrombin time	120 h
N#Cc1ccc2c(c1)[C@H]1CCCN(C(=O)c3ccc4[nH]cnc4c3)[C@H]1C2	refers to: body weight	human	240 mg once daily, day 28, adjusted mean	reference: placebo	change from baseline	-1.25 kg
CN(CCOc1ccc(CC2SC(=O)NC2=O)cc1)c1ccccn1 (stereo not drawn)	deuterium-hydrogen exchange	aqueous phosphate buffer	pH 7.4, 37 °C		exchange rate constant	-0.117 h⁻¹
O=C(OC(C(F)(F)F)C(F)(F)F)N1CCN(Cc2cccc(Oc3ccccc3)c2)CC1	PET blocking study	rhesus monkey, brain STR	0.01 mg/kg, compound pretreatment, together with: [18F]T-401 tracer		k3	0.967 min⁻¹
N#Cc1ccn2c(-c3ccncc3)c(-c3ccc(F)cc3)nc2c1	kinase binding, competitor, MIB/MS competition, refers to: KSP1	Candida albicans cell lysate	10 µM	reference: DMSO	log2 fold change	-0.485
COc1nc(-c2cccc(-c3ccccc3)c2C)ccc1CNCCNC(=O)CCCCCCCCCCC(=O)N1CCN(CCNC(=O)c2cc3c(=O)n4cccc(C)c4nc3n(CCc3cccs3)c2=N)CC1	flow cytometry, refers to: CD3, CD8	mouse tumour model, tumour tissue	dose not given	reference: control	CD3+ and CD8+ T cell count	increased
O=c1c(NCCc2cccc(Cl)c2)c(Nc2ccc(Cl)cc2)c1=O		rat	ip repeated, 5.6 mg/kg, together with: cocaine 32 mg/kg		cocaine behavioural sensitization	decreased
N#Cc1ccc2c(c1)[C@H]1CCCN(C(=O)c3ccc4[nH]cnc4c3)[C@H]1C2		human, plasma	40 mg, day 15, 360 h	reference: placebo and baseline	change in 1.5-AHG	1.7%
Cc1noc(C)c1-c1cc(C(O)(c2ccccn2)c2ccccn2)c2nc(C3CC3)[nH]c2c1	refers to: CCR2 expression	human, peripheral blood	9 mg, day 8, 1604 study		maximum inhibition	73%
CCc1c(C)nc(-c2ccc(Cl)s2)nc1Nc1ccc(CC(=O)O)cc1		C57BL/6J mouse, high-fat diet MASH model, white adipose tissue	intraperitoneal, 0.3 mg/kg daily, 60% fat diet for 12 weeks, dosed final four weeks	reference: untreated	adipocyte diameter	no effect
NC(=O)c1cnc2[nH]ccc2c1N[C@@H]1[C@@H]2CC3C[C@H]1C[C@@](O)(C3)C2	flow cytometry, refers to: CD4+ effector T cells	Japanese healthy subjects, peripheral blood	oral, 100 mg twice daily, day 7		change from baseline	-0.18%
CCN1CCN(Cc2ccc(Nc3ncc(F)c(-c4cc(F)c5nc6n(c5c4)[C@H](C)CCC6)n3)nc2)CC1	RECIST v1.1	advanced solid tumour patients	Phase Ia monotherapy		Non-CR/non-PD	0%
COc1ccc(F)cc1C(=O)NCc1ccc(-c2nn([C@@H](C)C(F)(F)F)c(N)c2C(N)=O)cc1		relapsed/refractory CLL patients	dose not given, monotherapy		best overall response PD	3%
OC[C@H]1O[C@@H](c2ccc(Cl)c(Cc3ccc(O[C@H]4CCOC4)cc3)c2)[C@H](O)[C@@H](O)[C@@H]1O		Japanese type 1 diabetes patients	25 mg, day 7, 168 h	reference: baseline	diastolic blood pressure change	2.1 mmHg
O=C(O)CNC(=O)Cc1ccccc1		ventricular cardiomyocytes, C57BL/6 mouse	dose not given, 0.404 s		sarcomere length	1.72 µm
O=C(O)CNC(=O)C(CS)Cc1ccccc1 (stereo not drawn)	LC-MS/MS, refers to: extracellular Leu-enkephalin	mouse striatal brain slices	10 µM, 20 min, together with: 50 mM KCl		Leu-enkephalin concentration	2230 pM and 1370 pM and 3140 pM and 986 pM and 2490 pM and 4730 pM and 3920 pM and 5050 pM
O=C(O)C1=CC(=C(c2ccc(O)c(C(=O)O)c2)c2ccc(O)c(C(=O)O)c2)C=CC1=O	flow cytometry	C57BL/6J mouse MC-38 tumour, tumour-infiltrating lymphocytes	peritumoral, dose not given, 2 cycles	reference: vehicle	CD3+ T cell number	no effect
CC(C)C[C@H](NC(=O)[C@H](CC(C)C)NC(=O)[C@H](Cc1c[nH]c2ccccc12)NC(=O)[C@H](CCC(=O)O)NC(=O)[C@@H](NC(=O)[C@H](Cc1ccccc1)NC(=O)[C@H](CCC(=O)O)NC(=O)[C@H](CCCCNC(=O)COCCOCCNC(=O)COCCOCCNC(=O)CC[C@H](NC(=O)CCCCCCCCCCCCCCCCCCC(=O)O)C(=O)O)NC(=O)[C@H](C)NC(=O)[C@H](CCCCN)NC(=O)[C@H](CCCCN)NC(=O)[C@H](CCC(=O)O)NC(=O)[C@H](CC(=O)O)NC(=O)[C@H](CC(C)C)NC(=O)[C@H](Cc1ccc(O)cc1)NC(=O)[C@H](CCCCN)NC(=O)[C@H](CO)NC(=O)[C@H](Cc1ccc(O)cc1)NC(=O)[C@H](CC(=O)O)NC(=O)[C@H](CO)NC(=O)[C@@H](NC(=O)[C@H](Cc1ccccc1)NC(=O)[C@@H](NC(=O)CNC(=O)[C@H](CCC(N)=O)NC(=O)C(C)(C)NC(=O)[C@@H](N)Cc1c[nH]cn1)[C@@H](C)O)[C@@H](C)O)C(C)C)C(=O)N[C@@H](CCC(=O)O)C(=O)NCC(=O)NCC(=O)N1CCC[C@H]1C(=O)N[C@@H](CO)C(=O)N[C@@H](CO)C(=O)NCC(N)=O	refers to: C-peptide	human, fasting plasma	dose not given, day 134, LS mean	reference: baseline	percent change from baseline	-16.9%

SMILES	test	test system	setting	how to read	quantity	value
C=CCn1c(=O)c2cnc(Nc3ccc(N4CCN(C)CC4)cc3)nc2n1-c1ccc2c(n1)[C@@](O)(CC)CC2		COLO 205 xenograft, BALB/c nude mice	oral, 60 mg/kg once daily x 22, day 21	reference: vehicle	tumour growth inhibition	30%
Cc1cc(C)c(CNC(=O)c2cc(Cl)c3c(c2C)O[C@@](C)([C@H]2CC[C@H](N(C)C)CC2)O3)c(=O)[nH]1		relapsed/refractory NHL patients, total incl. ATLL and CTCL	oral, dose not given		best overall response ND	5%
CCCCc1nc2c(N)nc3ccccc3c2n1Cc1ccc(CN)cc1	IL-6 release, ELISA	PBMC, human	24 h		concentration	~10 µM
COc1cc(O)c(CC=C(C)C)c(O)c1C(=O)/C=C/c1ccc(O)cc1	glucose tolerance test	Tac:SW mice (male, germ-free, high-fat diet)	in diet, 60 mg/kg per day, 30 min after glucose, after 10 weeks		blood glucose	323 mg/dL
Cc1c(C)n(Cc2cccc(OC(C)(C)C(=O)O)c2)c2ccc(C(=O)N[C@@H](C)c3ccc(C(C)(C)C)cc3)cc12		C57BL/6 mouse, diet-induced obesity, proximal tibia	dose not given	reference: control	bone volume change	30.6%
C[C@H]1O[C@@H](O[C@H]2CC[C@@]3(C)[C@@H](CC[C@]4(C)[C@@H]3C=C[C@]35OC[C@@]6(CCC(C)(C)C[C@H]63)[C@@H](O)C[C@]54C)[C@]2(C)CO)[C@H](O)[C@@H](O[C@@H]2O[C@H](CO)[C@@H](O)[C@H](O)[C@H]2O)[C@H]1O		mouse, chronic-plus-binge ethanol, plasma	dose not given, high dose		AST/ALT ratio	1.86 and 1.76 and 1.79 and 1.61
CC(C)NCC(O)c1ccc(O)c(O)c1 (stereo not drawn)		ventricular cardiomyocytes, C57BL/6 mouse	dose not given, 0.228 s		sarcomere length	1.52 µm
Cc1n[nH]c2ccc(-c3cc(OC[C@@H](N)Cc4ccccc4)cnc3-c3ccoc3)cc12	kinase binding, competitor, MIB/MS competition, refers to: RTK1	Candida albicans cell lysate	100 nM	reference: DMSO	log2 fold change	0.0613
O[C@H]1CCCN[C@@H]1CCCn1cnc2c(Cl)c(Cl)ccc21	ELISA, refers to: Pro-C3	healthy human volunteers, serum	50 mg, day 1, multiple ascending dose		maximum reduction	20.8%
CCOc1c([C@H](C)n2nc(C)c3c(N)ncnc32)cc(Cl)c(F)c1[C@@H]1CNC(=O)C1	Olink proximity extension, refers to: MMP-9	human FL or MZL patients, plasma	dose not given, week 8 day 1, once-daily dosing	reference: baseline	percent change in level	-63%
Cc1cc(C)c(CNC(=O)c2cc(Cl)c3c(c2C)O[C@@](C)([C@H]2CC[C@H](N(C)C)CC2)O3)c(=O)[nH]1		relapsed/refractory B-NHL patients	dose not given, IWG 2007 criteria		best overall response stable disease	42%
c1ccc(-c2n[nH]cc2-c2ccnc3ccccc23)nc1	kinase binding, competitor, MIB/MS competition, refers to: GIN4	Candida albicans cell lysate	1 µM	reference: DMSO	log2 fold change	1.38
COc1ncnn2ccc(-c3cnc4nc(C)n(Cc5nnc([C@@H](C)F)o5)c4c3)c12		relapsed or refractory AML, MDS	dose not given, splicing factor mutation-positive		best overall response PD	0%
OC(CCN1CCCCC1)(c1ccccc1)C1CC2C=CC1C2 (stereo not drawn)	resting-state EEG	healthy elderly humans	oral, 4 mg, eyes closed, LS mean	reference: baseline	change in EEG Beta3-power Pz-O2	3.5%
COc1ccc2c(c1)CN(Cc1ccc(C(=O)O)cc1)CCS2		exercised mdx mice	50 mg/kg, 2 weeks		forelimb grip strength	0.159 ± 0.008 kgf
CC(c1cc2ccccc2s1)N(O)C(N)=O (stereo not drawn)	refers to: 5,15-diHETE	human whole blood	3 µM, together with: Escherichia coli		amount	20 ± 2 pg/mL blood
CC(=O)Nc1ccc(O)cc1	RNA-seq pathway analysis, refers to: drug degradation pathway genes	liver spheroids	top non-cytotoxic, 10 d		gene expression	decreased
O=P(O)(O)C(Cl)(Cl)P(=O)(O)O		Mus musculus, subarachnoid haemorrhage, hippocampal fissure	concentration not given, day 1	reference: total area	GFAP-positive area	4.21% and 3.26% and 4.86%
